Measured values of several laboratories.
Parts stem from different laboratories: compare values within a part only. Changes are numbered by the printed parent chain.

Block 1
Target: OGT, full length, His-tagged (human)
Method: phage display, sequencing
Matrix: in vitro
Tested at: 1 µg OGT
Notes: single substitutions, 15-mer displayed peptide, unchanged parent 6.14
Baseline: input library
Reading: higher = stronger binding
Quantity: fold enrichment
Parent: peptide; VAYPNSYMPKYQIST
Change = Y3S; value = 5.84 fold
Change = I13S; value = 0.559 fold
Change = M8W; value = 2.77 fold
Change = Y7I; value = 1.12 fold
Change = I13M; value = 0.615 fold
Change = P4W; value = 5.72 fold
Change = A2V; value = 6.66 fold
Change = T15H; value = 2.44 fold
Change = P9F; value = 3.59 fold
Change = Y11R; value = 0.699 fold
Change = P4M; value = 1.7 fold
Change = A2N; value = 6.11 fold
Change = P9L; value = 2.69 fold
Change = A2Q; value = 6.02 fold
Change = Y3G; value = 6.08 fold
Change = T15P; value = 3.79 fold
Change = Y3K; value = 3.59 fold
Change = Y7D; value = 0.592 fold
Change = K10M; value = 6.16 fold
Change = Q12M; value = 1.55 fold
Change = S6R; value = 4.7 fold
Change = I13E; value = 0.927 fold
Change = Y11S; value = 0.639 fold
Change = M8G; value = 0.467 fold
Change = S14M; value = 9.62 fold

Block 2
Target: Fragile X messenger ribonucleoprotein 1, C-terminal low-complexity region (Fmr1, Mus musculus, UniProt P35922)
Method: RNA Bind-n-Seq
Form: RNA
Matrix: in vitro
Tested at: 200 nM
Notes: whole 134-nt RNA, ends assumed
Added: 150 mM KCl
Baseline: input library
Reading: higher = stronger binding
Quantity: log2 enrichment
All sequences stand within: GGGAGUUCUACAGUCCGACGAUC … UGGAAUUCUCGGGUGUCAAGG
Oligonucleotide = CUGUGCUACACAUCGUAUGUACCGAAUCGGGGUUUUUUUGGGGAAAGGGGAAAAAAAGGGGAAAGUAUUAUGUUACGCCGUUCGGAUCUG; value = -0.429
Oligonucleotide = UGUCCCAGGGAACGCCGGUGCAGAUGUGCUUCUUGUGGGCUCAGAGGCCUUCGUGCUGCUGGACGGGCAGGAGCUGACGCCUCGCUGGAC; value = -1.5
Oligonucleotide = CAAGUCCUGUGCUACACAUCGUAUGUACCGAAUCAAAUUUAAAUUUAAAUUUAAAAAAGUAUUAUGUUACGCCGUUCGGAUCUGCACUUC; value = -0.962
Oligonucleotide = AGUCCUGUGCUACACAUCGUAUGUACCGAAUCGGAAAAAGGUUUUUGGAAAAAAAGGAAAGUAUUAUGUUACGCCGUUCGGAUCUGCACU; value = -1.29
Oligonucleotide = UGGCUCUGGUGGCAUGCGGGGAGGAAGAGGUGGCCUCAUGGAUCGUGGUGGUCCCGGUGGAAUGUUCAGAGGUGGCCGUGGUGGAGACAG; value = 0.348
Oligonucleotide = UGGCCCUGGUGGCAUGCGGGGAGGAAGAGGUGGCCUCAUGGAUCGUGGUGGUCCCGGGGGAAUGUUCAGAGGUGGCCGUGGUGGAGACAG; value = 0.348
Oligonucleotide = CAAGUCCUGUGCUACACAUCGUAUGUACCGAAUCGGGUUUGGGGUUUGGUUUGGGAAAGUAUUAUGUUACGCCGUUCGGAUCUGCACUUC; value = -0.0245
Oligonucleotide = UGGGAGGUGGAUUUUGUUUAUUUUUUUAGCUCAUUUCCAGGGGUGGGAAUUUUUUUUUAAUAUGUGUUAUGAAUAAAGUUGUUUUUGAAA; value = 0.159
Oligonucleotide = UUUUCUUCUGGGGCAUUUAUCCGUGCUGAUCUUGGUGAAUGGGGCAUGAGUCUAACGAUCAGAGCCCCUAGUGUAGAUUACAGAAACACU; value = -0.0284
Oligonucleotide = GUCAAGAAAGAUCUUAAGACUGGUCAUUCAAAGGGGUUUGGCUUUGUUCGUUUUACGGAAUAUGAAACACAAGUGAAAGUAAUGUCACAG; value = -0.564
Oligonucleotide = CAAGUCCUGUGCUACACAUCGUAUGUACCGAAUCGGGGAAAGGGAAAGGGAAAGGAAAGUAUUAUGUUACGCCGUUCGGAUCUGCACUUC; value = -0.126
Oligonucleotide = UGUCUGGUGACAAGGAAGAGGAUGCUCCUCAUAGAGAAGAUUACUUUGAGCCCAUUUCUCCUGAUCGGAAUUCUGUUCCCCAGGAAGGGC; value = -2.09
Oligonucleotide = GCAGGAAGUAAAAACAAAUGGAAAUGCUUCGGAUAGUGGCAGGGGUGGGGGUUGCUAAGGAAAGGGUGGGAUGGGAGUGGGUCAAGAGUU; value = -0.0369
Oligonucleotide = UCAAGUCCUGUGCUACACAUCGUAUGUACCGAAUCGGUUUGGAAAAAGGAAAGGAAAGUAUUAUGUUACGCCGUUCGGAUCUGCACUUCC; value = -0.447

Block 3
Target: CCNB3, cyclin fold, Cln2 fusion (human)
Method: yeast growth competition, sequencing
Matrix: yeast
Notes: weak parent motif
Baseline: not given
Reading: higher = stronger binding
Quantity: normalised enrichment score
Parent: PKN2 docking peptide (human); VSAVQKLDFSDTM; partner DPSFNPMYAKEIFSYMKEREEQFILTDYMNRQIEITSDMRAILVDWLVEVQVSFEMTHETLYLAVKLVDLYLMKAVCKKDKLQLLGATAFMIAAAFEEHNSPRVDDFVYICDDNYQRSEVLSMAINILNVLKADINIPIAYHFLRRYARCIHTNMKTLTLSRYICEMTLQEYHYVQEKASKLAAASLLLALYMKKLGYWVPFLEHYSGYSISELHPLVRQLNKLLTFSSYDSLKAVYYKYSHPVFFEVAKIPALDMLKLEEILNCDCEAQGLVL
Change = V4G; value = 0.0765
Change = V4M; value = 0.344
Change = L7S; value = 0.131
Change = D8T; value = 0.0952
Change = M13D; value = -0.106
Change = S10T; value = 0.53
Change = T12M; value = 0.0556
Change = M13C; value = -0.0162
Change = S10R; value = 0.152
Change = V1L; value = 0.00929
Change = S10Q; value = -0.227
Change = A3D; value = -0.301
Change = T12L; value = 0.572
Change = S2T; value = 0.241
Change = T12K; value = 0.187
Change = D8S; value = 0.472
Change = A3M; value = 0.176
Change = T12G; value = 0.579
Change = L7K; value = 0.197
Change = V4C; value = -0.138
Change = D11I; value = -0.442
Change = M13S; value = 0.528
Change = V1R; value = -0.174
Change = K6A; value = 0.116

Block 4
Target: Sal-like protein 4, full length isoform A (SALL4, Homo sapiens, UniProt Q9UJQ4, residues 1-1053)
Chain of UniProt Q9UJQ4 (whole entry, looked up): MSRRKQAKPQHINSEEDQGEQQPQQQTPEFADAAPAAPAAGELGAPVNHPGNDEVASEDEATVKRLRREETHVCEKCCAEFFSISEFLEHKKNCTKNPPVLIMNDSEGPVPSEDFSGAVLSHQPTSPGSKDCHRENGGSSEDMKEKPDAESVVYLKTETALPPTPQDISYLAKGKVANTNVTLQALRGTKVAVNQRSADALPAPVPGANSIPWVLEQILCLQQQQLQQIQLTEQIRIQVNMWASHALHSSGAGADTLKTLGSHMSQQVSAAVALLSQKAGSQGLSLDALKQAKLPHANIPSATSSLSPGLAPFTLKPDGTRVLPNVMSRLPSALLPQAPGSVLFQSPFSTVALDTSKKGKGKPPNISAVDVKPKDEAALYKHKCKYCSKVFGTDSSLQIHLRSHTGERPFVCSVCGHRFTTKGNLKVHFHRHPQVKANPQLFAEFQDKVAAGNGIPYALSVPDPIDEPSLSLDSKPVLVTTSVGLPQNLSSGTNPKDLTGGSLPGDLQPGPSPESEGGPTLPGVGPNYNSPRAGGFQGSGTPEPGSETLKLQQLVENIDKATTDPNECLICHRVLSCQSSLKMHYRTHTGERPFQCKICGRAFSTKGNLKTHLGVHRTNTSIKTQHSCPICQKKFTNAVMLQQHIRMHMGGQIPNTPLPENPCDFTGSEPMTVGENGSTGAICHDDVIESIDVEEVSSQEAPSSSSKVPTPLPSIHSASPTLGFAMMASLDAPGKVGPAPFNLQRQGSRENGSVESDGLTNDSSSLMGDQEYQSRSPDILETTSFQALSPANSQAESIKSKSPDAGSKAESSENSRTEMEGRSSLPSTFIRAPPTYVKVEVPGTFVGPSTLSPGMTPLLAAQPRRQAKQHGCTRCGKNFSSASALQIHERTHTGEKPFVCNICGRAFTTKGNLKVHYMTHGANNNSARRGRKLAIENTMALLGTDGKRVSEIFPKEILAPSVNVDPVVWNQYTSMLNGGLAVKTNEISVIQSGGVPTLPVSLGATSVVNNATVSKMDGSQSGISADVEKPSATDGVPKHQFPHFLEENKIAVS
Method: universal PBM
Form: double-stranded DNA, one strand shown
Matrix: in vitro
Tested at: 600 nM
Notes: 8-mer, flanks averaged, mean of replicates
Reading: higher = stronger binding
Quantity: E-score
Oligonucleotide = AATCAGCT; value = 0.129
Oligonucleotide = CGGGCGAG; value = -0.333
Oligonucleotide = ACGCGCCT; value = -0.127
Oligonucleotide = CAAGCCGC; value = -0.399
Oligonucleotide = AAAGTGTT; value = 0.165
Oligonucleotide = AACGCGCC; value = -0.204
Oligonucleotide = GTGCGCTA; value = -0.151
Oligonucleotide = CATGACTA; value = 0.102
Oligonucleotide = AGTTCGTG; value = -0.0855
Oligonucleotide = AGTTCGTA; value = 0.0487
Oligonucleotide = GGCTTTGA; value = -0.15
Oligonucleotide = CATGGTTA; value = 0.219
Oligonucleotide = AGTCCAAT; value = 0.151
Oligonucleotide = CGAGTATA; value = 0.221
Oligonucleotide = ACCCGTAC; value = -0.172
Oligonucleotide = GACAGCGC; value = -0.149
Oligonucleotide = ACGAGGAG; value = -0.0859
Oligonucleotide = GGGGGTAC; value = -0.259
Oligonucleotide = AAAGACTT; value = 0.225
Oligonucleotide = CGGCATTA; value = 0.0876
Oligonucleotide = CATAAGCC; value = 0.165
Oligonucleotide = CTCCATTA; value = 0.121
Oligonucleotide = AAAAGCAT; value = 0.228
Oligonucleotide = CGTAGAAA; value = 0.158
Oligonucleotide = CCGCCGAG; value = -0.369

Block 5
Target: ABI1, truncated, D143A, DHFR fusion (Arabidopsis thaliana)
Method: DHFR PCA, deep sequencing
Matrix: yeast
Notes: methotrexate growth selection, single substitutions
Added: (+)-ABA 710 µM
Baseline: wild-type fitted maximum
Reading: higher = stronger binding
Quantity: relative binding score
Parent: PYL1, truncated, DHFR fusion (Arabidopsis thaliana); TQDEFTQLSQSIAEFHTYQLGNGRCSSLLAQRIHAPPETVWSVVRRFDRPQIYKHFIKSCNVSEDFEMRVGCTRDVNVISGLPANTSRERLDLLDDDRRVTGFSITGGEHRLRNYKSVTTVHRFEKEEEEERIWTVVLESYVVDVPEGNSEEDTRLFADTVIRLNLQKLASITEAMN
Change = T101W; value = 72.6%
Change = L169M; value = 78.2%
Change = R32D; value = 86.5%
Change = F47E; value = -4.09%
Change = P37R; value = 81.6%
Change = D159S; value = 90.8%
Change = V143H; value = -7.99%
Change = R123P; value = 103%
Change = W134N; value = 108%
Change = Y53N; value = 45.9%
Change = L112K; value = -13.7%
Change = E147P; value = 98.9%
Change = E64R; value = 102%
Change = E89G; value = 11.3%
Change = S9L; value = 89.4%
Change = E139T; value = 101%
Change = V142L; value = 94.2%
Change = R69S; value = 99%

Excerpt of the above (block 3):
Change = V4M; value = 0.344
Change = K6A; value = 0.116
Change = V1R; value = -0.174
Change = V4G; value = 0.0765
Change = A3D; value = -0.301
Change = D8T; value = 0.0952
Change = M13D; value = -0.106
Change = T12M; value = 0.0556
Change = S10R; value = 0.152
Change = D8S; value = 0.472
Change = T12L; value = 0.572
Change = M13S; value = 0.528
Change = L7S; value = 0.131
Change = V4C; value = -0.138
Change = D11I; value = -0.442
